Assay results of several laboratories.
Several values in a cell are separate wells, animals, samples, runs or records. ± marks the error that the study gave. In brackets after ≈: the same amount, converted by molar mass.

With COc1ccccc1NC(=O)c1ccccc1Oc1ccc2c(c1)OCO2 the IC50 was 12.6 µM (HIV-1; viral replication, item: RT activity; H9 expressing A3G, LAI, X4-tropic wild type; day 7).
N#CC(C#N)=NNc1cccc(Cl)c1 has a fold enhancement of 4 fold (Escherichia coli; tetracycline MIC, checkerboard; tetracycline-resistant (pBR322); 42 µM, with: tetracycline; reference: MIC alone over combination).
For CC[C@H](C)[C@H](N)C(=O)N[C@@H](Cc1c[nH]c2ccccc12)C(=O)N[C@@H](CC(C)C)C(=O)N[C@H](C(=O)N[C@@H](C)C(=O)N[C@@H](CC(C)C)C(=O)N[C@@H](CCCCN)C(=O)N[C@@H](Cc1ccccc1)C(=O)N[C@@H](CC(C)C)C(=O)NCC(=O)N[C@@H](CCCCN)C(=O)N[C@@H](Cc1c[nH]cn1)C(=O)N[C@@H](C)C(=O)N[C@@H](C)C(=O)N[C@@H](CCCCN)C(=O)N[C@@H](Cc1c[nH]cn1)C(=O)N[C@@H](CC(C)C)C(=O)N[C@@H](C)C(=O)N[C@@H](CCCCN)C(=O)N[C@@H](CCC(N)=O)C(=O)N[C@@H](CCC(N)=O)C(=O)N[C@@H](CC(C)C)C(=O)N[C@@H](CO)C(=O)N[C@@H](CCCCN)C(=O)N[C@@H](CC(C)C)C(=O)O)[C@@H](C)O, the MIC was 25 µM (≈ 71.1 µg/mL) (Escherichia coli; broth microdilution; K12; 37 °C).
`protamine`: infection efficiency “increased” (feline infectious peritonitis virus; plaque; fcwf-4, type I strain KU-2; concentration not given).
The IC50 of O=C(Nc1ccccc1F)c1ccccc1Sc1ccc([N+](=O)[O-])cc1 is reported as over 100 µM (HIV-1; viral replication, item: RT activity; H9 expressing A3G, LAI, X4-tropic wild type; day 7).
N#CC(C#N)=NNc1cccc(Cl)c1 gave an MIC of 12.5 µM (≈ 2.56 µg/mL) (Staphylococcus aureus; NCTC 8325).
Cn1c(Cn2ccc(C(F)(F)F)c(Oc3cc(Cl)cc(C#N)c3)c2=O)n[nH]c1=O gave an EC50 of 0.0023 ± 0.0006 µM (HIV-1; viral replication, single-round infection; RT mutant K101E/M184I).
For CCCC(=O)OCSc1ccccc1C(=O)NCCC(N)=O, the EC50 was 3.14 ± 2.18 µM (HIV-1; viral replication; human PBMC, subtype D 92UG001, dual-tropic clinical isolate).
CCc1c(C(=O)C(N)=O)c2c(OCC(=O)O)cccc2n1Cc1ccccc1 has a survival of 100% (PB population, mouse; intravenous, 120 µg/mouse, 24 h, given 30 min after venom, with: Daboia russelii venom 2.5 x LD50 i.p.).
The maximum response of CCCCN(CCCC)CCCNC(=O)c1ccc2nc(N3CCCCC3)sc2c1 is reported as 86.5% (SARS-CoV-2; cytopathic effect; USA_WA1/2020; retest, 8-point, duplicates).
With C#C[C@]1(CO)O[C@@H](n2cnc3c(=O)[nH]c(N)nc32)C[C@@H]1O the IC50 was 0.002 ± 0.0006 µM (HIV-1 T215F; MTT; MT4).
CCCCN(C)CCCNC(=O)c1ccc2nc(N3CCCCC3)sc2c1 has an efficacy of 0% (SARS-CoV-2; cytopathic effect; USA_WA1/2020; retest, 8-point, duplicates).
C#C[C@]1(CO)O[C@@H](n2cnc3c(N)nc(F)nc32)C[C@@H]1O gave an IC50 of 0.0037 ± 0.0017 µM (HIV-1 M184V; MT4).
For COc1ccccc1S(=O)(=O)Nc1ccccc1Sc1ccc(N)cc1, the IC50 was 20.8 µM (HIV-1; viral replication, item: RT activity; H9 expressing A3G, LAI, X4-tropic wild type; day 7).
The IC50 of C[C@]1(CO)O[C@@H](n2cnc3c(N)nc(N)nc32)C[C@@H]1O is reported as over 1 µM (HIV-1 M184V; MTT; MT4).
CC[C@H](C)[C@H](NC(=O)[C@H](CC(C)C)NC(=O)[C@H](CCCCN)NC(=O)[C@H](CC(C)C)NC(=O)CNC(=O)[C@@H](NC(=O)[C@H](CO)NC(=O)[C@@H](NC(=O)[C@@H](NC(=O)[C@H](CCC(N)=O)NC(=O)[C@H](Cc1c[nH]c2ccccc12)NC(=O)[C@H](CCCNC(=N)N)NC(=O)[C@H](CC(N)=O)NC(=O)[C@H](CCCNC(=N)N)NC(=O)[C@H](CCCNC(=N)N)NC(=O)[C@@H](NC(=O)[C@H](Cc1ccccc1)NC(=O)[C@H](CCCNC(=N)N)NC(=O)CNC(=O)[C@H](C)NC(=O)[C@H](CCCNC(=N)N)NC(=O)[C@H](CCCNC(=N)N)NC(=O)[C@H](CCCCN)NC(=O)[C@H](Cc1ccccc1)NC(=O)[C@H](CCCNC(=N)N)NC(=O)CNC(=O)[C@H](Cc1c[nH]c2ccccc12)NC(=O)[C@H](CCCNC(=N)N)NC(=O)CNC(=O)[C@H](CCCNC(=N)N)NC(=O)[C@@H](N)[C@@H](C)O)[C@@H](C)CC)[C@@H](C)CC)[C@@H](C)CC)[C@@H](C)O)C(=O)NCC(=O)O gave an MIC of 0.3 µM (≈ 1.17 µg/mL) (Clostridium perfringens; ATCC 13124).
O=C1Nc2ccc(Cl)cc2[C@@](C#CC2CC2)(C(F)(F)F)O1 has an EC50 of 0.0011 ± 0.0001 µM (HIV-1; viral replication, single-round infection; RT mutant G190A).
Cc1cn([C@H]2C[C@H](N=[N+]=[N-])[C@@H](CO)O2)c(=O)[nH]c1=O has an EC50 of under 0.0003 µM (HIV-1; viral replication; human monocytes/macrophages, subtype B 91US005, CCR5-tropic).
Cc1cc(/C=C/C#N)cc(C)c1Nc1ccnc(Nc2ccc(C#N)cc2)n1 has an EC50 of at most 0.0008 µM (HIV-1; viral replication, single-round infection; RT mutant V106A/F227L).
Nc1ncnc2c([C@@H]3N[C@H](CO)[C@@H](O)[C@H]3O)c[nH]c12 gave an inhibition of 99.9% (Zaire ebolavirus; viral replication; HeLa, Kikwit; 50 µM).
With COc1ccccc1C(=O)Nc1ccccc1Oc1ccc(N(C)C)cc1 the IC50 was 2.5 µM (HIV-1; viral replication, item: RT activity; H9 expressing A3G, LAI, X4-tropic wild type; day 7).
With Cc1cc(/C=C/C#N)cc(C)c1Nc1nc(Nc2ccc(/C=C/C#N)cc2)ncc1N the EC50 was under 0.002 µM (HIV-1; viral replication, single-round infection; RT mutant V106A/F227L/L234I).
COc1ccccc1C(=O)Nc1ccccc1Oc1ccc(OC(C)=O)cc1 has an IC50 of 43.2 µM (HIV-1; viral replication, item: RT activity; H9 expressing A3G, LAI, X4-tropic wild type; day 7).
For NC(=O)CCNC(=O)c1ccccc1S, the EC50 was 5.39 ± 0.74 µM (HIV-1; viral replication; human PBMC, subtype D 92UG001, dual-tropic clinical isolate).
The IC50 of Cc1cn([C@H]2C[C@H](N=[N+]=[N-])[C@@H](CO)O2)c(=O)[nH]c1=O is reported as 0.0168 ± 0.0128 µM (HIV-1 M184V; MTT; MT4).
CNc1nc(N)ncc1-c1cn([C@@H]2O[C@H](CO)[C@@H](O)[C@@]2(C)F)cn1: antiviral activity “inactive” (herpes simplex virus 1; concentration not given).
With N#C[C@]1(CO)O[C@@H](n2cnc3c(N)nc(N)nc32)C[C@@H]1O the IC50 was 0.0012 ± 0.0009 µM (HIV-1 T215F; MTT; MT4).
COc1ccccc1NC(=O)c1ccccc1OCc1cccc([N+](=O)[O-])c1 has an IC50 of 7.1 µM (HIV-1; viral replication, item: RT activity; H9 expressing A3G, LAI, X4-tropic wild type; day 7).
Cn1cnc(Cn2c(=O)[nH]/c(=N\c3cc4cn(C)nc4cc3Cl)n(Cc3cc(F)c(F)cc3F)c2=O)n1 has a renal clearance of 0.542 mL/min (human, severe renal impairment, plasma; oral, 375 mg single dose).
With `caspofungin` the radial growth was 0.222 and 0.276 and 0.235 (Aspergillus fumigatus; solid medium; 0.125 µg/mL, 4 days, unit not given; reference: untreated control).
With CC[C@]1(CO)O[C@@H](n2cnc3c(=O)[nH]c(N)nc32)C[C@@H]1O the IC50 was 0.014 µM (HIV-1 K65R; MTT; MT4).
The EC50 of Cc1cc(/C=C/C#N)cc(C)c1-n1cnc2cnc(Nc3ccc(/C=C/C#N)cc3)nc21 is reported as 0.0113 ± 0.0022 µM (HIV-1; viral replication, single-round infection; RT mutant V106A).
CC[C@]1(CO)O[C@@H](n2cnc3c(N)nc(N)nc32)C[C@@H]1O has an IC50 of over 1 µM (HIV-1 M184V; MT4).
CNC(=O)[C@@H](NC(=O)[C@H](CC(C)C)[C@H](O)C(=O)NO)C(C)(C)C — result for “remaining fibrinogen Aα chain”: 0.632 (human fibrinogen; SDS-PAGE; Daboia russelii; concentration not given, unit not given, with: AP venom; reference: untreated fibrinogen).
The EC50 of Cc1cc(/C=C/C#N)cc(C)c1-n1cnc2cnc(Nc3ccc4cc(C#N)ccc4c3)nc21 is reported as at most 0.0021 µM (HIV-1; viral replication, single-round infection; RT mutant G190A).
For O=C(Nc1cccc(CO)c1)c1ccccc1Sc1ccc([N+](=O)[O-])cc1, the IC50 was 50 µM (HIV-1; viral replication, item: RT activity; H9 expressing A3G, LAI, X4-tropic wild type; day 7).
Under “systolic blood pressure change”, CC[C@H](C)[C@H](NC(=O)[C@H](CC(C)C)NC(=O)[C@H](Cc1c[nH]c2ccccc12)NC(=O)[C@H](CCC(N)=O)NC(=O)[C@@H](NC(=O)[C@H](Cc1ccccc1)NC(=O)[C@H](C)NC(=O)[C@H](CCCCNC(=O)COCCOCCNC(=O)COCCOCCNC(=O)CC[C@H](NC(=O)CCCCCCCCCCCCCCCCCCC(=O)O)C(=O)O)NC(=O)[C@H](CCC(N)=O)NC(=O)[C@H](C)NC(=O)[C@@H](NC(=O)[C@H](CCCCN)NC(=O)[C@H](CC(=O)O)NC(=O)[C@H](CC(C)C)NC(=O)C(C)(C)NC(=O)[C@@H](NC(=O)[C@H](CO)NC(=O)[C@H](Cc1ccc(O)cc1)NC(=O)[C@H](CC(=O)O)NC(=O)[C@H](CO)NC(=O)[C@@H](NC(=O)[C@H](Cc1ccccc1)NC(=O)[C@@H](NC(=O)CNC(=O)[C@H](CCC(=O)O)NC(=O)C(C)(C)NC(=O)[C@@H](N)Cc1ccc(O)cc1)[C@@H](C)O)[C@@H](C)O)[C@@H](C)CC)[C@@H](C)CC)C(C)C)C(=O)N[C@@H](C)C(=O)NCC(=O)NCC(=O)N1CCC[C@H]1C(=O)N[C@@H](CO)C(=O)N[C@@H](CO)C(=O)NCC(=O)N[C@@H](C)C(=O)N1CCC[C@H]1C(=O)N1CCC[C@H]1C(=O)N1CCC[C@H]1C(=O)N[C@@H](CO)C(N)=O is recorded as 1.72 mmHg (healthy subjects; 4.5 mg, day 29, multiple ascending dose, LS mean; reference: baseline).
CNc1nc(N)ncc1-c1cn([C@@H]2O[C@H](CO[P@@](=O)(N[C@@H](C)C(=O)OC(C)C)Oc3ccccc3)[C@@H](O)[C@@]2(C)F)cn1 — result for antiviral activity: “inactive” (Epstein-Barr virus; concentration not given).
With COC(=O)c1ccc(Oc2ccccc2NC(=O)c2ccccc2OC)cc1 the IC50 was 10.7 µM (HIV-1; viral replication, item: RT activity; H9 expressing A3G, LAI, X4-tropic wild type; day 7).
For Nc1nc(NC2CC2)c2ncn([C@H]3C=C[C@@H](CO)C3)c2n1, the IC50 was 1.53 ± 0.431 µM (HIV-1 M184V; MTT; MT4).

For quick reference, copied from above:
Nc1ncnc2c([C@@H]3N[C@H](CO)[C@@H](O)[C@H]3O)c[nH]c12 gave an inhibition of 99.9% (Zaire ebolavirus; viral replication; HeLa, Kikwit; 50 µM).
With COc1ccccc1C(=O)Nc1ccccc1Oc1ccc(N(C)C)cc1 the IC50 was 2.5 µM (HIV-1; viral replication, item: RT activity; H9 expressing A3G, LAI, X4-tropic wild type; day 7).
With Cc1cc(/C=C/C#N)cc(C)c1Nc1nc(Nc2ccc(/C=C/C#N)cc2)ncc1N the EC50 was under 0.002 µM (HIV-1; viral replication, single-round infection; RT mutant V106A/F227L/L234I).
COc1ccccc1C(=O)Nc1ccccc1Oc1ccc(OC(C)=O)cc1 has an IC50 of 43.2 µM (HIV-1; viral replication, item: RT activity; H9 expressing A3G, LAI, X4-tropic wild type; day 7).
For NC(=O)CCNC(=O)c1ccccc1S, the EC50 was 5.39 ± 0.74 µM (HIV-1; viral replication; human PBMC, subtype D 92UG001, dual-tropic clinical isolate).
The IC50 of Cc1cn([C@H]2C[C@H](N=[N+]=[N-])[C@@H](CO)O2)c(=O)[nH]c1=O is reported as 0.0168 ± 0.0128 µM (HIV-1 M184V; MTT; MT4).
CNc1nc(N)ncc1-c1cn([C@@H]2O[C@H](CO)[C@@H](O)[C@@]2(C)F)cn1: antiviral activity “inactive” (herpes simplex virus 1; concentration not given).
